Results from different studies.
Numbered parts are unrelated; each lists some results of a single study. Positions count from the first letter of the parent shown.

Series 1
Target: ABI1, truncated, D143A, DHFR fusion (Arabidopsis thaliana)
Method: DHFR PCA, deep sequencing
Medium: yeast
Notes: methotrexate growth selection, single substitutions
Together with: (+)-ABA 0.39 µM
Relative to: wild-type fitted maximum
Direction: higher = stronger binding
Parent: PYL1, truncated, DHFR fusion (Arabidopsis thaliana); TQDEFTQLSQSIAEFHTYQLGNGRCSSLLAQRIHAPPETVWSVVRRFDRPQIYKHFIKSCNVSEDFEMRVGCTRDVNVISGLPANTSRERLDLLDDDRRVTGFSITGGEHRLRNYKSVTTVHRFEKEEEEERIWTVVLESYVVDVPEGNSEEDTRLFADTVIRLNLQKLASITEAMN
`R45G`: “relative binding score” -2.84%.
`T17H`: “relative binding score” 1.22%.
Under “relative binding score”, `A35F` is recorded as 3.07%.
`A84F` — result for “relative binding score”: 84.5%.
`A84Y` — result for “relative binding score”: 98.1%.
`W134M` — result for “relative binding score”: 60.6%.
Under “relative binding score”, `D153H` is recorded as -1.67%.
Under “relative binding score”, `L20V` is recorded as 64.3%.
Under “relative binding score”, `R123D` is recorded as 22.2%.
Under “relative binding score”, `P36H` is recorded as 40.8%.
For `F56T`, “relative binding score” read -1.7%.
`V40M` — result for “relative binding score”: -10.9%.
Under “relative binding score”, `E89L` is recorded as 1.59%.
`Q31E`: “relative binding score” 7.64%.
`I12N`: “relative binding score” 8.41%.
Under “relative binding score”, `K58C` is recorded as -2.06%.
`L138R` — result for “relative binding score”: -1.77%.
For `H34G`, “relative binding score” read 15.8%.
`A35H` — result for “relative binding score”: -10.8%.
Under “relative binding score”, `G81P` is recorded as 28.1%.
`W41T`: “relative binding score” -10.8%.
For `R90G`, “relative binding score” read -6.09%.
`V62Q` — result for “relative binding score”: -19.3%.
`S26L` — result for “relative binding score”: -1.78%.
For `V43M`, “relative binding score” read 12.8%.

Series 2
Target: CCNA2, cyclin fold, Cln2 fusion (human)
Method: yeast growth competition, sequencing
Medium: yeast
Notes: strong parent motif
Relative to: not given
Direction: higher = stronger binding
Parent: CDKN1A docking peptide (human); SKACRRLFGPVDS
`SKATRRLFGPVDS [C4T]`: “normalised enrichment score” 3.
`SKACRRLFGPVTS [D12T]`: “normalised enrichment score” 5.55.
For `AKACRRLFGPVDS [S1A]`, “normalised enrichment score” read 5.39.
`SAACRRLFGPVDS [K2A]` — result for “normalised enrichment score”: 4.54.
Under “normalised enrichment score”, `SKACRRLIGPVDS [F8I]` is recorded as 1.08.
Under “normalised enrichment score”, `SKACRSLFGPVDS [R6S]` is recorded as 4.72.
For `SKACRRLFGHVDS [P10H]`, “normalised enrichment score” read 5.03.
Under “normalised enrichment score”, `SKHCRRLFGPVDS [A3H]` is recorded as 2.96.
`SKVCRRLFGPVDS [A3V]`: “normalised enrichment score” 6.22.
`SIACRRLFGPVDS [K2I]`: “normalised enrichment score” 4.4.
Under “normalised enrichment score”, `SKAFRRLFGPVDS [C4F]` is recorded as 2.66.
`SKKCRRLFGPVDS [A3K]` — result for “normalised enrichment score”: 1.4.
`SKAGRRLFGPVDS [C4G]` — result for “normalised enrichment score”: 1.47.
Under “normalised enrichment score”, `SKPCRRLFGPVDS [A3P]` is recorded as 4.16.
`SKACRILFGPVDS [R6I]`: “normalised enrichment score” 3.14.
Under “normalised enrichment score”, `SKACRWLFGPVDS [R6W]` is recorded as 1.07.
`SKACKRLFGPVDS [R5K]`: “normalised enrichment score” 5.33.
For `SKACRRLFGPVGS [D12G]`, “normalised enrichment score” read 5.31.
Under “normalised enrichment score”, `SKACARAFGPVDS [R5A L7A]` is recorded as 0.041.
`SKACRRLFGDVDS [P10D]`: “normalised enrichment score” 5.78.
For `SKACRRLFWPVDS [G9W]`, “normalised enrichment score” read 5.84.
`SKACRRLFGPRDS [V11R]` — result for “normalised enrichment score”: 5.5.
For `SKARRRLFGPVDS [C4R]`, “normalised enrichment score” read 7.07.
`SKACGRLFGPVDS [R5G]` — result for “normalised enrichment score”: 0.512.
`SKACRRLFGPVKS [D12K]`: “normalised enrichment score” 5.01.

Series 3
Target: Histone acetyltransferase KAT6A, both winged helices, GST fusion (KAT6A, Homo sapiens, UniProt Q92794, residues 1-181)
Method: protein binding microarray
Form: double-stranded DNA, one strand shown
Medium: in vitro
Tested at: not given
Notes: 8-mer, flanks averaged, mean of 2 arrays, mostly near background
Relative to: not given
Direction: higher = stronger binding
Residues (chain): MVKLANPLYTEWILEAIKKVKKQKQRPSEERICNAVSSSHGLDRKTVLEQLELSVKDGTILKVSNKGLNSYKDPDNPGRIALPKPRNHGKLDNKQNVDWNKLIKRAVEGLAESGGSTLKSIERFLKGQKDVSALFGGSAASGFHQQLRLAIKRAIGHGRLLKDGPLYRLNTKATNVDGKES
The E-score of `GATAGCTA` is reported as -0.0541.
`TTAAGCAA` gave an E-score of -0.00468.
For `CAAAATAC`, the E-score was -0.0161.
`AGCTAGTA` has an E-score of -0.13.
`GGCGTCCC` gave an E-score of 0.109.
`GATAAATC` has an E-score of 0.0233.
For `ACACCAGG`, the E-score was -0.217.
`CGTGGCAA` gave an E-score of -0.0108.
For `CCGAAGGA`, the E-score was 0.05.
With `ACTCCTAA` the E-score was -0.0784.
With `CTGTCTGC` the E-score was -0.0545.
For `GCAGTGAC`, the E-score was -0.0381.
For `ATTAGAAT`, the E-score was -0.192.
For `CTATTGAG`, the E-score was -0.167.
`AAAATTAT` gave an E-score of 0.0238.
For `CGGAAGGA`, the E-score was 0.183.
`AGTAAGAG` gave an E-score of -0.124.
`CAATTGTA` gave an E-score of -0.0631.
`CAATAGCC` gave an E-score of -0.184.
`ACCGTCAG` has an E-score of 0.0222.
For `AATGACAG`, the E-score was -0.282.
The E-score of `AACAAGAC` is reported as -0.0727.

Series 4
Target: Centromere-binding protein 1, full length, N-terminal tag (CBF1, Saccharomyces cerevisiae, UniProt P17106, residues 1-351)
Sequence of UniProt P17106 (whole entry, looked up): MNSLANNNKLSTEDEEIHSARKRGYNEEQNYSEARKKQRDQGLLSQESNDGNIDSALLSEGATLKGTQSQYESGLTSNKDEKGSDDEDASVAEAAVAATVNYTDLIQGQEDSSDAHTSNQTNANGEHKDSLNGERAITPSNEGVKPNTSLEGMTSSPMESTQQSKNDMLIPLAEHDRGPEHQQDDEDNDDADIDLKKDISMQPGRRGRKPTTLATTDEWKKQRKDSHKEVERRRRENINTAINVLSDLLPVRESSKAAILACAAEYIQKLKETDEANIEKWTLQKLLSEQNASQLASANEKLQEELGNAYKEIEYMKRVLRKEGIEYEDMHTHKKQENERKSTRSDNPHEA
Method: protein-binding microarray
Form: double-stranded DNA, one strand shown
Medium: in vitro
Tested at: 0.8 µM
Notes: whole 60-bp probe, no competitor
Direction: higher = stronger binding
`GAAATTCCCTATAATCACGACGATAGGACTGTATAGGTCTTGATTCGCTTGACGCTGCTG` gave a fluorescence intensity of 557 a.u.
`CTAAGAAACTAAAATCTGATGATGAAATTGATATTCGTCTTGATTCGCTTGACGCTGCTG` has a fluorescence intensity of 538 a.u.
`GAATTGTTTTTTGATGTTACGTTCTGTATGATTTAGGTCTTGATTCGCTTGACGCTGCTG` has a fluorescence intensity of 528 a.u.
`CTAACTGCACCTCCTAACATCACCATACTACGTTTCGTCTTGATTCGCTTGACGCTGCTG` has a fluorescence intensity of 577 a.u.
For `CTAAATATTAAAGTTCACAACGTGAACACCTTCTTCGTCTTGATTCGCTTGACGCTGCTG`, the fluorescence intensity was 613 a.u.
For `TGTACGAAGCTATGGTCGGTCACTATAGTAGTTAGGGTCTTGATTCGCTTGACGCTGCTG`, the fluorescence intensity was 514 a.u.
With `CTAATGACTACGCATTATCACGTAGGCATATATTTCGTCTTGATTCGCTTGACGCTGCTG` the fluorescence intensity was 586 a.u.
The fluorescence intensity of `CTATCAGGAAGAGGCCACATGCATTACAGAGAATTCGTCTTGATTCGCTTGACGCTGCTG` is reported as 563 a.u.
`CTATTCCTCAGTCTGTACGTGTTGTTGTGGCTGTTCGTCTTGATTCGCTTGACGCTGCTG` has a fluorescence intensity of 547 a.u.
With `GAAGCAGTAAACGATCACGCAACTACTCCATTTTAGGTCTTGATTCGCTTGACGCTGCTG` the fluorescence intensity was 616 a.u.
`GAAACTATAGCTCAAAGCGTGGCTAGCCTTTGATAGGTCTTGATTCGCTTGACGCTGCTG` has a fluorescence intensity of 470 a.u.
The fluorescence intensity of `CTACCCGGTAATAGTCACGTGATAAAGGTGCATTTCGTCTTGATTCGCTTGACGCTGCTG` is reported as 36100 a.u.
With `CTAATTATATACACCCACATGATTCTATAGACATTCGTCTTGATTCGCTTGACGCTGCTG` the fluorescence intensity was 941 a.u.
For `TGTACGAAGCTATACAAGGTGACTATAGTAGTTAGGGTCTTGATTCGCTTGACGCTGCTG`, the fluorescence intensity was 532 a.u.
With `CTAGGAGTGCTTTTTCACATGAAGGCCATCGGGTTCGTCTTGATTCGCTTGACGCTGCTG` the fluorescence intensity was 529 a.u.
`CTACGCTGTTACCTCCAGGTGATTGCTGTCTTTTTCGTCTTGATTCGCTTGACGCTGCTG` gave a fluorescence intensity of 545 a.u.
`CTAACACTTCTTGAACACGTTTTACTAAATTGTTTCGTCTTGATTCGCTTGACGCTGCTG` has a fluorescence intensity of 945 a.u.
The fluorescence intensity of `GAAAGCCGCAGACGTGAGTTGATCTTTTTGCTTTAGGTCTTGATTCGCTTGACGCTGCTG` is reported as 484 a.u.
`CTACATACGGCTGCTCTCCTGATTGCGGTGGGTTTCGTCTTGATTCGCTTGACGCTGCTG` has a fluorescence intensity of 520 a.u.
The fluorescence intensity of `CTACCATAGGTGAGCCACGAGTTTGATTCCAAATTCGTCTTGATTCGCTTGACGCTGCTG` is reported as 539 a.u.
`CTAAAATTTCCGAATCACATGTTCGTAAAACAATTCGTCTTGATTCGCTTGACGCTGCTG` has a fluorescence intensity of 4620 a.u.
`GAATGGTTACGTTGCCACTCACGTAAGAAGTTCTAGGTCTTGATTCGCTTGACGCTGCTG` gave a fluorescence intensity of 501 a.u.
The fluorescence intensity of `GAATGGTCCCATGACCATGTGCCGAAATCTTTTTAGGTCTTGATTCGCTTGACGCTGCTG` is reported as 1990 a.u.
`TGTACGAAGCTATACGTGATGGCTATAGTAGTTAGGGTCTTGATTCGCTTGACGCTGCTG` has a fluorescence intensity of 588 a.u.
For `GAATTCTGGGGTTACCACGATTACCAGCGGATTTAGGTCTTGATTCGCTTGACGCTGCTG`, the fluorescence intensity was 507 a.u.

Some of these lines once more (series 1):
`A84Y` — result for “relative binding score”: 98.1%.
`T17H`: “relative binding score” 1.22%.
`A84F` — result for “relative binding score”: 84.5%.
`A35H` — result for “relative binding score”: -10.8%.
`V40M` — result for “relative binding score”: -10.9%.
`S26L` — result for “relative binding score”: -1.78%.
Under “relative binding score”, `L20V` is recorded as 64.3%.
Under “relative binding score”, `D153H` is recorded as -1.67%.
`W134M` — result for “relative binding score”: 60.6%.
`R45G`: “relative binding score” -2.84%.
